Measurements gathered from unrelated publications.
Compare with care: the assays were run in different laboratories. ± marks the error that the study gave.

Compound	cell line	test	conditions	how to read	quantity	result
O=C(COc1ccccc1/C=N/Nc1nc(-c2ccc(Br)cc2)cs1)N1CCN(C(=O)COc2ccccc2/C=N/Nc2nc(-c3ccc(Br)cc3)cs2)CC1	HDF	cell growth or viability, SRB	100 µM, 48 h	–	inhibition	54.8%
CCC12CCc3c(c4ccccc4n3C)CCN(CC3OC31)C2 (centres unmarked)	BV-2	NO production	25 µM, 1 h, 24 h stimulation, added: LPS 800 ng/mL	reference: LPS control	inhibition	73.8 ± 0.1%
COc1cc(CNC(=O)C[C@H](C)CCC=C(C)C)ccc1O	HCC 2998	SRB	10 µM, 48 h	–	growth percent	108%
O=C(COc1ccccc1/C=N/Nc1nc(-c2ccc(Cl)cc2)cs1)N1CCN(C(=O)COc2ccccc2/C=N/Nc2nc(-c3ccc(Cl)cc3)cs2)CC1	HDF	cell growth or viability, SRB	100 µM, 48 h	–	inhibition	66.9%
CC(C)(C)ONc1nc(Nc2ccnc(C(F)(F)F)c2)nc(-c2cccc(C(F)(F)F)n2)n1	U-87 MG IDH2 R140Q	2-HG production	0.2 µM, 72 h	–	inhibition	78.2%
FC1(F)Oc2ccc(Cc3c[nH]c4ncc(C(F)(F)F)cc34)cc2O1	4T1	cell growth or viability, MTT	10 µM, 72 h	–	inhibition	22%
CC(=O)Nc1ccc(OC(=O)CCC(=O)[O][Pt-2]23([O]C(=O)CCC(=O)Oc4ccc(NC(C)=O)cc4)([NH2+][C@@H]4CCCC[C@H]4[NH2+]2)[O]C(=O)C(=O)[O]3)cc1	4T1	cell migration, wound healing	2 µM, 48 h	reference: untreated control	inhibition	~20%
C/C(=N\N=c1/[nH]c(-c2ccccc2)cs1)c1ccccn1	HEp-2	cell growth or viability, SRB	100 µg/mL, 48 h	–	inhibition	64.3%
COc1cc(Cc2c[nH]c3ncc(C(F)(F)F)cc23)cc(OC)c1	4T1	cell migration	10 µM, 24 h	–	inhibition	77.3%
CC(C)(C)c1ccc(-c2ccc(S(=O)(=O)N(CCC(F)(F)F)c3ccc(C(=O)NCCC(=O)O)cc3)cc2)cc1	mouse primary hepatocytes	glucose production	20 µM, gluconeogenic substrates, added: glucagon 10 nM	–	inhibition	72%
COc1cc(CNC(=O)C[C@H](C)CCC=C(C)C)ccc1OCc1cn(-c2ccc(Br)cc2)nn1	HOP-62	SRB	10 µM, 48 h	–	growth percent	65.1%
CC(C)C[C@H](NC(=O)[C@H](CO)NC(=O)[C@H](CCCNC(=N)N)NC(=O)[C@H](CCCCN)NC(=O)[C@@H](NC(=O)[C@@H](NC(=O)CNC(=O)[C@H](CCCNC(=N)N)NC(=O)[C@H](Cc1c[nH]cn1)NC(=O)[C@H](Cc1c[nH]c2ccccc12)NC(=O)[C@H](Cc1ccccc1)NC(=O)[C@H](Cc1c[nH]cn1)NC(=O)[C@H](Cc1ccc(O)cc1)NC(=O)[C@@H](N)Cc1ccc(O)cc1)C(C)C)[C@@H](C)O)C(=O)N[C@@H](CO)C(=O)N1CCC[C@H]1C(=O)N[C@@H](Cc1c[nH]cn1)C(=O)N[C@@H](CCCNC(=N)N)C(=O)N1CCC[C@H]1C(=O)N[C@@H](CCCNC(=N)N)C(=O)N[C@@H](Cc1c[nH]cn1)C(=O)N[C@@H](CO)C(=O)N[C@@H](CCCNC(=N)N)C(=O)O	THP-1	TNF-α secretion, ELISA	5 µM, 4 to 12 h, added: LPS	–	inhibition	28%
COc1ccc(C2=Nn3c(NN=C4C(=O)N(C)c5ccc(Br)cc54)nnc3SC2)cc1	M14	cell growth or viability, SRB	10 µM	–	inhibition	33%
CCCN(c1ccc(C(=O)NCCC(=O)O)cc1)S(=O)(=O)c1cc(C)c(-c2ccc(C(C)(C)C)cc2)c(C)c1	mouse primary hepatocytes	glucose production	20 µM, gluconeogenic substrates, added: glucagon 10 nM	–	inhibition	74%

Excerpt of the above:
Compound	cell line	test	conditions	how to read	quantity	result
O=C(COc1ccccc1/C=N/Nc1nc(-c2ccc(Br)cc2)cs1)N1CCN(C(=O)COc2ccccc2/C=N/Nc2nc(-c3ccc(Br)cc3)cs2)CC1	HDF	cell growth or viability, SRB	100 µM, 48 h	–	inhibition	54.8%
CC(C)C[C@H](NC(=O)[C@H](CO)NC(=O)[C@H](CCCNC(=N)N)NC(=O)[C@H](CCCCN)NC(=O)[C@@H](NC(=O)[C@@H](NC(=O)CNC(=O)[C@H](CCCNC(=N)N)NC(=O)[C@H](Cc1c[nH]cn1)NC(=O)[C@H](Cc1c[nH]c2ccccc12)NC(=O)[C@H](Cc1ccccc1)NC(=O)[C@H](Cc1c[nH]cn1)NC(=O)[C@H](Cc1ccc(O)cc1)NC(=O)[C@@H](N)Cc1ccc(O)cc1)C(C)C)[C@@H](C)O)C(=O)N[C@@H](CO)C(=O)N1CCC[C@H]1C(=O)N[C@@H](Cc1c[nH]cn1)C(=O)N[C@@H](CCCNC(=N)N)C(=O)N1CCC[C@H]1C(=O)N[C@@H](CCCNC(=N)N)C(=O)N[C@@H](Cc1c[nH]cn1)C(=O)N[C@@H](CO)C(=O)N[C@@H](CCCNC(=N)N)C(=O)O	THP-1	TNF-α secretion, ELISA	5 µM, 4 to 12 h, added: LPS	–	inhibition	28%
